Assay results from different studies.
Parts stem from different laboratories: compare values within a part only.
Chain of UniProt Q9UF33 (whole entry, looked up): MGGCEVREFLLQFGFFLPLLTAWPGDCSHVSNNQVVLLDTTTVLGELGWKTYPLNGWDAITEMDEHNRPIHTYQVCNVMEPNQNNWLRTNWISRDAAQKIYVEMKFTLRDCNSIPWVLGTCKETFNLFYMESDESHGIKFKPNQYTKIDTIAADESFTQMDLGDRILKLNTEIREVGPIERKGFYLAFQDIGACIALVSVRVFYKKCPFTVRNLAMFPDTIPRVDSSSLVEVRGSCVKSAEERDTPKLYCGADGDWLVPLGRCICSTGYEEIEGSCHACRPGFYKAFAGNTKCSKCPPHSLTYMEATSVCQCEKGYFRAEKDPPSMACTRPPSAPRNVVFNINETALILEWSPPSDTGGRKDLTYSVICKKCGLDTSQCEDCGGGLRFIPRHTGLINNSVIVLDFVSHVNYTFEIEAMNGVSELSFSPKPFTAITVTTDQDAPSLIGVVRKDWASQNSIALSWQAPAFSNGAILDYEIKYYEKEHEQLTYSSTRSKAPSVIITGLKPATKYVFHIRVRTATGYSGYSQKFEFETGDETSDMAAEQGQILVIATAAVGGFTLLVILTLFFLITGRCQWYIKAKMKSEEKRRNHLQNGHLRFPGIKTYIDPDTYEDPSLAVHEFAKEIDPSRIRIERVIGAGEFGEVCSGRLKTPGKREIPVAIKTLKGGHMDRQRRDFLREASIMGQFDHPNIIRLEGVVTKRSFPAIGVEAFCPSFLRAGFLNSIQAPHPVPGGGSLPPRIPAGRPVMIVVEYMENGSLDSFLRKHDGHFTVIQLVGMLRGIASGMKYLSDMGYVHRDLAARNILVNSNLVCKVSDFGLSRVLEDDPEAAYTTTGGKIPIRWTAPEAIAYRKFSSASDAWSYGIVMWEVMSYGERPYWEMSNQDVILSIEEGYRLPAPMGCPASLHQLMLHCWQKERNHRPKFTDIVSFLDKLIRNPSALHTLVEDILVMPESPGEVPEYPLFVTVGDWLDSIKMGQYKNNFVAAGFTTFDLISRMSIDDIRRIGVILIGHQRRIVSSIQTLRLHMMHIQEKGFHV
Chain of UniProt Q9HBY8 (whole entry, looked up): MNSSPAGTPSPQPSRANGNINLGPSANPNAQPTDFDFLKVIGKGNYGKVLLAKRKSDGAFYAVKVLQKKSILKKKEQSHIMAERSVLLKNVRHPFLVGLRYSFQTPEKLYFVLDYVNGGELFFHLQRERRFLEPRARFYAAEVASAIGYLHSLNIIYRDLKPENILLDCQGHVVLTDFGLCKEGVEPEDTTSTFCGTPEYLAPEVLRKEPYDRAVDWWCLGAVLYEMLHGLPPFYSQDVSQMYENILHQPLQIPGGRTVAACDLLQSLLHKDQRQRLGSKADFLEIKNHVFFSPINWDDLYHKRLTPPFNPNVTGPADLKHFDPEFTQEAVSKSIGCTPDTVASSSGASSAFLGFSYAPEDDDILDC
Chain of UniProt Q05513 (whole entry, looked up): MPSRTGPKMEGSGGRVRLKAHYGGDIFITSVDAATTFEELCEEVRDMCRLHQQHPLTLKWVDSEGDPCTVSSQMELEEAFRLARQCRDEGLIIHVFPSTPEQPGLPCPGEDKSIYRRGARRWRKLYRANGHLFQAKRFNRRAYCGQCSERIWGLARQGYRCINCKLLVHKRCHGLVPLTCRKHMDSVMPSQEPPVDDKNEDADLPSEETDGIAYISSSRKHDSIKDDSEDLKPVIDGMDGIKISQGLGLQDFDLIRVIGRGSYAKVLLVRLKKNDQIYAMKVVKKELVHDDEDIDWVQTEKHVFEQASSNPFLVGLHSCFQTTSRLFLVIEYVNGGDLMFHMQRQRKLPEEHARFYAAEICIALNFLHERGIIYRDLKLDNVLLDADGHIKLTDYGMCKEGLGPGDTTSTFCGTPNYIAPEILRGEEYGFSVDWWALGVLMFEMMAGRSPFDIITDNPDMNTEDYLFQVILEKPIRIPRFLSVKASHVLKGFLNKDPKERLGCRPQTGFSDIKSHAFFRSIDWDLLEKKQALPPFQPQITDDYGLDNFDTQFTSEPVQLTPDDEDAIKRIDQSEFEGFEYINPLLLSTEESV
Chain of UniProt O15146 (whole entry, looked up): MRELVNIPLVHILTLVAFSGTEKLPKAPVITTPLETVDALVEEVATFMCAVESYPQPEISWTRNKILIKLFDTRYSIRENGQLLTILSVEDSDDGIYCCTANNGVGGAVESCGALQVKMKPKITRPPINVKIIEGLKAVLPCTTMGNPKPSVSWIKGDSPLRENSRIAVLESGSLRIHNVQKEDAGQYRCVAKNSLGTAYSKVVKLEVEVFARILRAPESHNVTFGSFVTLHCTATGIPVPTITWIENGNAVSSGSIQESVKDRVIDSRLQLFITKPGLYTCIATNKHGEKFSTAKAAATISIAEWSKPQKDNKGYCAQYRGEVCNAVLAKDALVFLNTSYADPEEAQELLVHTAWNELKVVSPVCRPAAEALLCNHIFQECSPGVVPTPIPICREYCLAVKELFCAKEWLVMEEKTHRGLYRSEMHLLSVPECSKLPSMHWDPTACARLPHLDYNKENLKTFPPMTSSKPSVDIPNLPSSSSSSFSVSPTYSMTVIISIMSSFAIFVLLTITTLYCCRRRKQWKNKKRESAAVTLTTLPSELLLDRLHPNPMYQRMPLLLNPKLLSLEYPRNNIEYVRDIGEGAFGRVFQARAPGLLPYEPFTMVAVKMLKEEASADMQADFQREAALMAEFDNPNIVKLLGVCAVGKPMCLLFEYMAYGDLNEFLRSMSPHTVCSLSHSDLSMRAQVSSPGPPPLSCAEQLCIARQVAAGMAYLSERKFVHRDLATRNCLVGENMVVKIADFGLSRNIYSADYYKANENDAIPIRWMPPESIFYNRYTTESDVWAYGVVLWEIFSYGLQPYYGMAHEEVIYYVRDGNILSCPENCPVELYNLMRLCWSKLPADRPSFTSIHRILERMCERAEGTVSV
Chain of UniProt P49674 (whole entry, looked up): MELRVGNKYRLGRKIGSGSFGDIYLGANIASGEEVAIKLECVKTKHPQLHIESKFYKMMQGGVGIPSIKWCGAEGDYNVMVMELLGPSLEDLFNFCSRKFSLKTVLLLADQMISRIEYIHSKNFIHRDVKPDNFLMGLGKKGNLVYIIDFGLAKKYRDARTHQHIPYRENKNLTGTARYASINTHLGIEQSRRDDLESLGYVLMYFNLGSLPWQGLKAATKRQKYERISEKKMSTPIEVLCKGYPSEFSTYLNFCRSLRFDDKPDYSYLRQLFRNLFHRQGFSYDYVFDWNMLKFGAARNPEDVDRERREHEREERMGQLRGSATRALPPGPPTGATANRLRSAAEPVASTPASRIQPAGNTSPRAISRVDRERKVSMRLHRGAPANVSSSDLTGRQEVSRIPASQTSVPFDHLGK
Chain of UniProt P49759 (whole entry, looked up): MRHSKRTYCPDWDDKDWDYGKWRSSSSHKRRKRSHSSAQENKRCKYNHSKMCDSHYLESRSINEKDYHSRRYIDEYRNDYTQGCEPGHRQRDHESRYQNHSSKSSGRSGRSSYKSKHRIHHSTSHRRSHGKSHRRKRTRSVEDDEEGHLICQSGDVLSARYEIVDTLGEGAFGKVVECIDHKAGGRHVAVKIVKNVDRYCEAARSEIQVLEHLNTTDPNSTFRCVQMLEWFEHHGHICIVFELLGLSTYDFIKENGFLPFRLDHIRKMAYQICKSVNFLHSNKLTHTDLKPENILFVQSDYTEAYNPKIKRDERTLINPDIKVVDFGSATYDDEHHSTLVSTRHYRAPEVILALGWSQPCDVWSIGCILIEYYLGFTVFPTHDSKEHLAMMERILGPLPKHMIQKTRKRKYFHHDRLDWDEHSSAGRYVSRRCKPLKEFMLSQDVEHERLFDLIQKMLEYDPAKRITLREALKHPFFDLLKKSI
Chain of UniProt Q9NQU5 (whole entry, looked up): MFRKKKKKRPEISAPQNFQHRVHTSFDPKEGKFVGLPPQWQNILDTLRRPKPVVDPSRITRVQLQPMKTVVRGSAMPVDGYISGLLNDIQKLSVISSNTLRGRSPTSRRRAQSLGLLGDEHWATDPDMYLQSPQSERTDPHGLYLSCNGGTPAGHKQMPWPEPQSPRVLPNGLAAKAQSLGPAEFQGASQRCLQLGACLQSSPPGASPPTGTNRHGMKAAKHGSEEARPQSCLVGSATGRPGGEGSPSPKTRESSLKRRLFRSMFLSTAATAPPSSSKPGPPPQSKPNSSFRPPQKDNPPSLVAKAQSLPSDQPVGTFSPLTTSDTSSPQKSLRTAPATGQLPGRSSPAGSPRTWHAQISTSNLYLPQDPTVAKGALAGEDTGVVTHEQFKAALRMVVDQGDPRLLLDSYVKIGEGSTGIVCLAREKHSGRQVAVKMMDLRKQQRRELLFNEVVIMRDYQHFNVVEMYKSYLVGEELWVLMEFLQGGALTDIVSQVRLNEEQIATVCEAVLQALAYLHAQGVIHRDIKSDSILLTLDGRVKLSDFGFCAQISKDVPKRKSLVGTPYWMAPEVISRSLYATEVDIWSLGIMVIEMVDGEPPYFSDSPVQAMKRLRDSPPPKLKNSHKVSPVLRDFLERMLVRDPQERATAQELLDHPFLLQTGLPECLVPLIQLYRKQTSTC

Series 1
Cell line: mouse MPNST tumor cells
Method: high-content nuclear imaging
Refers to: cell number
Concentration: 10 µM
Time: 12 h
Setting: mean of 2 replicates
Reference: plate mean
Direction: higher = more cells
| SMILES | nuclei count [z-score] |
| --- | --- |
| CN1CCC(=C2c3ccccc3CC(=O)c3sccc32)CC1 | 2.51 |
| O=C(Nc1ccccc1)C12CC1C(=NO)c1ccccc1O2 (centres unmarked) | 4.13 |
| Cc1cc(OCC(=O)O)cc(C)c1Cc1ccc(O)c(C(C)C)c1 | 1.35 |
| O=C(O)CCNC(=O)c1ccc(/N=N/c2ccc(O)c(C(=O)O)c2)cc1 | 0.215 |
| O=C(COCC(=O)N1CCN(C(c2ccccc2)c2ccccc2)CC1)Nc1ccc(Cl)cc1C(=O)O | 1.93 |

Series 2
Compound: COc1cc(C(=O)N2CCC(N3CCN(C)CC3)CC2)ccc1Nc1ncc2c(n1)N(C)c1ccccc1C(=O)N2C
| target or system | assay | test system | setting | inhibition |
| --- | --- | --- | --- | --- |
| CaMK2a (mouse) | probe labelling, KiNativ, refers to: Lys1 site peptide | brain tissue lysate (mouse) | 1 µM, with: ATP acyl-phosphate probe | 14.6% |
| AMPKa1 and AMPKa2 (mouse) | probe labelling, KiNativ, refers to: VAVkILNR peptide, Lys1 site | brain tissue lysate (mouse) | 0.1 µM, with: ATP acyl-phosphate probe | -4% |
| NDR1 (mouse) | probe labelling, KiNativ, refers to: DTGHVYAMkILR peptide, LYS1 site | brain tissue lysate (mouse) | 1 µM, with: ADP acyl-phosphate probe | -5.2% |
| CaMK2d (mouse) | probe labelling, KiNativ, refers to: Lys1 site peptide | brain tissue lysate (mouse) | 1 µM, with: ATP acyl-phosphate probe | -9.1% |
| PIP5K1C (mouse) | probe labelling, KiNativ, refers to: ATP site peptide | brain tissue lysate (mouse) | 0.1 µM, with: ATP acyl-phosphate probe | 1.7% |
| – | inhibitor, KiNativ profiling, refers to: peptide TSTQEYAAkIINTK | human PBMC lysate | concentration not given, Lys1 site, with: ADP acyl-phosphate probe | -1.5% |

Series 3
Structure (SMILES): CO[C@H]1C[C@@H]2CC[C@@H](C)[C@@](O)(O2)C(=O)C(=O)N2CCCC[C@H]2C(=O)O[C@H]([C@H](C)C[C@@H]2CC[C@@H](O)[C@H](OC)C2)CC(=O)[C@H](C)/C=C(\C)[C@@H](O)[C@@H](OC)C(=O)[C@H](C)C[C@H](C)/C=C/C=C/C=C/1C
Read-out: enzyme activity
Action: inhibitor
Concentration: 0.5 µM
Reference: control
| target | remaining activity |
| --- | --- |
| Protein kinase C zeta type (PRKCZ, Homo sapiens, UniProt Q05513) | 105% |
| Muscle, skeletal receptor tyrosine-protein kinase (MUSK, Homo sapiens, UniProt O15146) | 87.7% |
| Ephrin type-A receptor 6 (EPHA6, Homo sapiens, UniProt Q9UF33) | 99% |
| Casein kinase I isoform epsilon (CSNK1E, Homo sapiens, UniProt P49674) | 102% |
| Serine/threonine-protein kinase Sgk2 (SGK2, Homo sapiens, UniProt Q9HBY8) | 101% |
| Serine/threonine-protein kinase PAK 6 (PAK6, Homo sapiens, UniProt Q9NQU5) | 112% |
| Dual specificity protein kinase CLK1 (CLK1, Homo sapiens, UniProt P49759) | 107% |

Further values, each from its own experiment
Target: 5-hydroxytryptamine receptor 2B (HTR2B, Homo sapiens, UniProt P41595)
Chain of UniProt P41595 (whole entry, looked up): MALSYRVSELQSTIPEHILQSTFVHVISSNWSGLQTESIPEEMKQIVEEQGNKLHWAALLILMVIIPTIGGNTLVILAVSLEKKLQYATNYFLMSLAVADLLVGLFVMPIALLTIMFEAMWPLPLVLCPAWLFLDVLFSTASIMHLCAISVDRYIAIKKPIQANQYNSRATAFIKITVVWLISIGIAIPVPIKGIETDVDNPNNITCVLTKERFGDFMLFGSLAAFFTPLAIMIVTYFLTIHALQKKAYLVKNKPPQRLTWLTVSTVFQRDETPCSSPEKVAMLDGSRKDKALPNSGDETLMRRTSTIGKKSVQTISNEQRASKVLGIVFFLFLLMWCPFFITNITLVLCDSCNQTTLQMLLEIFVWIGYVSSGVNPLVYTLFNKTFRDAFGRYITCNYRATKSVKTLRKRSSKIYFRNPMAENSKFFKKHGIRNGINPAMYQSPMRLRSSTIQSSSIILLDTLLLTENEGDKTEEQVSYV
Read-out: binding
Method: radioligand binding
| Compound | concentration | measurement | value |
| --- | --- | --- | --- |
| Cc1ncc(-c2cc(Cl)ccc2F)cc1-n1c(=O)n(CC(N)=O)c2ccccc21 | – | Ki | 1590 nM |
| CNC(=O)c1ccc(Nc2ncc(C(F)(F)F)c(NCc3nccnc3N(C)S(C)(=O)=O)n2)cc1 | 10 µM | inhibition | 5.73% |

Some of these lines once more (series 3):
| target | remaining activity |
| --- | --- |
| Muscle, skeletal receptor tyrosine-protein kinase (MUSK, Homo sapiens, UniProt O15146) | 87.7% |
| Ephrin type-A receptor 6 (EPHA6, Homo sapiens, UniProt Q9UF33) | 99% |
